Assay results gathered from unrelated publications.
Numbered parts are unrelated; each lists some results of a single study.

Set 1
Organism: Leishmania donovani
Cells: THP-1
Strain: DD8
Sample: intracellular amastigotes
Relative to: THP-1 cytotoxicity over amastigote activity
Quantity: selectivity index
COC(=O)c1cccc(Nc2c3c(nc4ccccc24)CCC3)c1: 2.65
CCOC(=O)c1ccc(Nc2c3c(nc4ccccc24)CCC3)cc1: 2.08
Clc1ccc2nc3c(c(Nc4ccc(Oc5ccccc5)cc4)c2c1)CCC3: 2.93
Clc1ccc2nc3c(c(Nc4ccc5c(c4)OCCO5)c2c1)CCC3: 2.11
c1ccc2c(Nc3ccc4c(c3)OCCO4)c3c(nc2c1)CCC3: 4.18
Clc1ccc(Nc2c3c(nc4ccccc24)CCC3)cc1: 1.74
Cc1ccc(Nc2c3c(nc4ccccc24)CCC3)cc1: 4.36
Fc1cccc(Nc2c3c(nc4ccccc24)CCC3)c1: 1.83

Set 2
Organism: Arabidopsis thaliana
Strain: Col-0
Tested at: 12.5 µg/mL
Notes: seed germination
Quantity: root length
CCN1C(=O)C(O)(C(=O)O)Oc2cc(F)ccc21 (stereo not shown): 0.836 cm
O=C(O)C1(O)Oc2ccccc2N(Cc2ccccc2)C1=O (stereo not shown): 1.25 cm
CC(C)=CCN1C(=O)C(O)(C(=O)O)Oc2cc(F)ccc21 (stereo not shown): 1.14 cm
O=C(O)C1(O)Oc2cc(F)ccc2N(Cc2ccccc2)C1=O (stereo not shown): 0.316 cm
CCCN1C(=O)C(O)(C(=O)O)Oc2cc(F)ccc21 (stereo not shown): 0.823 cm
O=C(O)C1(O)Oc2cc(Cl)ccc2N(Cc2ccccc2)C1=O (stereo not shown): 1.21 cm
O=C(O)C1Oc2cc(F)ccc2N(Cc2ccccc2)C1=O (stereo not shown): 1.04 cm
Cc1ccc2c(c1)OC(O)(C(=O)O)C(=O)N2Cc1ccccc1 (stereo not shown): 1.08 cm

Set 3
Target: E3 ubiquitin-protein ligase NEDD4 (Homo sapiens, UniProt P46934)
Observed: enzyme activity
Mode: inhibitor
Method: TR-FRET
Tested at: 33 µM
Quantity: inhibition
Construct (P46934 938-1319, limits assumed): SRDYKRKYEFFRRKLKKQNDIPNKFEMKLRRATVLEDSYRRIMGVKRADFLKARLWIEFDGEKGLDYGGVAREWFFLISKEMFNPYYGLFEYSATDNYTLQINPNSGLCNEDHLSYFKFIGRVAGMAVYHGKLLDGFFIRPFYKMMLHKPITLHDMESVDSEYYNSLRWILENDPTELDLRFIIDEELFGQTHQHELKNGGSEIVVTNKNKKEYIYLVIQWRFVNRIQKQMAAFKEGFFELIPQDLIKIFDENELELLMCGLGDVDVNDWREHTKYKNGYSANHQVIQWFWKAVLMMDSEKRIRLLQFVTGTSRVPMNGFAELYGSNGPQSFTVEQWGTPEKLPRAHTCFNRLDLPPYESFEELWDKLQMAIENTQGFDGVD
COC(=O)/C=C/C(=O)NCCCN1c2ccccc2CCc2ccc(Cl)cc21: < 10%
C=CC(=O)NCCCN1c2ccccc2CCc2ccc(Cl)cc21: < 10%
CNC(=O)/C=C/CNCCCN1c2ccccc2CCc2ccc(Cl)cc21.Cl: 38.5%
CCOC(=O)/C=C/CNCCCN1c2ccccc2CCc2ccc(Cl)cc21: 85.5%
CN(C)C/C=C/C(=O)NCCCN1c2ccccc2CCc2ccc(Cl)cc21: 26.7%

Mixed results
Cn1cc(-c2cccc(CN3CCC4(CC3)COc3c4ccc4c3CN([C@H]3CCC(=O)NC3=O)C4=O)c2)cn1
clearance (cynomolgus monkey, plasma; intravenous, 1 mg/kg): 18.1 mL/min/kg

Some of these lines once more (set 3):
COC(=O)/C=C/C(=O)NCCCN1c2ccccc2CCc2ccc(Cl)cc21: < 10%
C=CC(=O)NCCCN1c2ccccc2CCc2ccc(Cl)cc21: < 10%
CNC(=O)/C=C/CNCCCN1c2ccccc2CCc2ccc(Cl)cc21.Cl: 38.5%
